Results gathered from unrelated publications.
Compare with care: the assays were run in different laboratories. ± gives the spread as reported.
Sequence of UniProt P40763 (whole entry, looked up): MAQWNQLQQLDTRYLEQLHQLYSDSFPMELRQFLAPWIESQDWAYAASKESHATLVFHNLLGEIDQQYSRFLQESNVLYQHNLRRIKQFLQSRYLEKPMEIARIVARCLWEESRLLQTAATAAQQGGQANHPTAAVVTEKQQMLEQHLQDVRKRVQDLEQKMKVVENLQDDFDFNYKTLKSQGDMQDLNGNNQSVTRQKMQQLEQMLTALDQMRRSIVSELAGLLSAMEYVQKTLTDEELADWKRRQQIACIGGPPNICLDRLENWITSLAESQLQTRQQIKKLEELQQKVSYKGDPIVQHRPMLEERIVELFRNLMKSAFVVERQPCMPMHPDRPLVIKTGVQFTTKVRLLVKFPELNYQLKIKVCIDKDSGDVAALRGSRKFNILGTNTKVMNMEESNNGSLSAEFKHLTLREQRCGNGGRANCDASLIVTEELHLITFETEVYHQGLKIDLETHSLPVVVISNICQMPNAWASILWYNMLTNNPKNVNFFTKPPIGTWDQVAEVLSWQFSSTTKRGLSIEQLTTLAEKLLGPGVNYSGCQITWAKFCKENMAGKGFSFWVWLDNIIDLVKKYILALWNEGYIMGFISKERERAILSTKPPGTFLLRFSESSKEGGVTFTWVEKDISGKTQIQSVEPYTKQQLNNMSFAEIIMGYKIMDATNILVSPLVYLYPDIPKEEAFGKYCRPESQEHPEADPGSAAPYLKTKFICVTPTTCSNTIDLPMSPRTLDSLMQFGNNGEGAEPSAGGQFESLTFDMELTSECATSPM
Sequence of UniProt Q96SW2 (whole entry, looked up): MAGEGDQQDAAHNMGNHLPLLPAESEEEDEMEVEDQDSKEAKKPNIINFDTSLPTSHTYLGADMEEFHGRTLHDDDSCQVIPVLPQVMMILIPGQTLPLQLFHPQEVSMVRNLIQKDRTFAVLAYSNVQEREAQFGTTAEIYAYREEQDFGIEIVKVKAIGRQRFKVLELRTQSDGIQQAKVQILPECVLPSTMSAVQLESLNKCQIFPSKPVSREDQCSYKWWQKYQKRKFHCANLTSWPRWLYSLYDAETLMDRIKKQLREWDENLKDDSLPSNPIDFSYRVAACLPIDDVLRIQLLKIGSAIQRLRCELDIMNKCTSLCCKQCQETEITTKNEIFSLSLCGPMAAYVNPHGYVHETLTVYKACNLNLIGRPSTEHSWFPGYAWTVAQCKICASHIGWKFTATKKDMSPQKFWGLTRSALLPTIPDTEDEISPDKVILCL
Sequence of UniProt P08246 (whole entry, looked up): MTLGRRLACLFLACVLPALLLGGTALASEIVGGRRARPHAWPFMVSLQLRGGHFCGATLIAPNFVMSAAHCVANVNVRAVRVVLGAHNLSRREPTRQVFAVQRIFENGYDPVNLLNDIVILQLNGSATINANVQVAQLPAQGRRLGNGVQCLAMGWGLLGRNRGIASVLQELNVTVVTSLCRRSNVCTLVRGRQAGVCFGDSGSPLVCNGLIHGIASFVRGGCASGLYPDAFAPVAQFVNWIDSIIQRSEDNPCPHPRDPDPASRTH
Sequence of UniProt O95147 (whole entry, looked up): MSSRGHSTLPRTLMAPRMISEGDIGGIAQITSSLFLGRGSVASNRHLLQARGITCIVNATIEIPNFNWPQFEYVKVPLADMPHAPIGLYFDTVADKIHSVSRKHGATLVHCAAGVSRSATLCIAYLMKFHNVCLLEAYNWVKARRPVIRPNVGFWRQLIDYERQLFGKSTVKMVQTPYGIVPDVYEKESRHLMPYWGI
Sequence of UniProt O14939 (whole entry, looked up): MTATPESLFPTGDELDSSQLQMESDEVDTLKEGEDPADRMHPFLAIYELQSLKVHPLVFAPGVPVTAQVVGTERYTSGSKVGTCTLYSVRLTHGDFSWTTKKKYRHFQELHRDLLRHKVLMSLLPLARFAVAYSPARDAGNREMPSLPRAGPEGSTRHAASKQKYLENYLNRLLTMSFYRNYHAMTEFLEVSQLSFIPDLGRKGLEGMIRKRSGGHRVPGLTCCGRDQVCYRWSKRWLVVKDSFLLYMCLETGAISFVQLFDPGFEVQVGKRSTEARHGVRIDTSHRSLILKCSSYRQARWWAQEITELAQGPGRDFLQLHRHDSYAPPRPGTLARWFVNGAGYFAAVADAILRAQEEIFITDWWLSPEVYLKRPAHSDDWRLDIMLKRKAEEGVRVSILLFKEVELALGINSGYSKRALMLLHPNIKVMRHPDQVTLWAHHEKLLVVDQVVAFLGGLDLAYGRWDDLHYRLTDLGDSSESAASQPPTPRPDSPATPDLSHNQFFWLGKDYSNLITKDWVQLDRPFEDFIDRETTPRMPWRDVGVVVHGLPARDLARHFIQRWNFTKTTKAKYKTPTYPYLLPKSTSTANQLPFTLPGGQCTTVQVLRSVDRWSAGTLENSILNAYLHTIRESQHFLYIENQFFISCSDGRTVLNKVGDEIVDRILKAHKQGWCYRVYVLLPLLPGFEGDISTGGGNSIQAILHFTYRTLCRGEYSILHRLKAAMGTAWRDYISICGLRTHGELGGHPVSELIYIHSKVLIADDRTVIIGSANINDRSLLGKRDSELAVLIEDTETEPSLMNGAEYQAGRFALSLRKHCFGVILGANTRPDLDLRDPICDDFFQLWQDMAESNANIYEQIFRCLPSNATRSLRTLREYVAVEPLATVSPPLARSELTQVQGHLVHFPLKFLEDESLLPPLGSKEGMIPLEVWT
Sequence of UniProt P56817 (whole entry, looked up): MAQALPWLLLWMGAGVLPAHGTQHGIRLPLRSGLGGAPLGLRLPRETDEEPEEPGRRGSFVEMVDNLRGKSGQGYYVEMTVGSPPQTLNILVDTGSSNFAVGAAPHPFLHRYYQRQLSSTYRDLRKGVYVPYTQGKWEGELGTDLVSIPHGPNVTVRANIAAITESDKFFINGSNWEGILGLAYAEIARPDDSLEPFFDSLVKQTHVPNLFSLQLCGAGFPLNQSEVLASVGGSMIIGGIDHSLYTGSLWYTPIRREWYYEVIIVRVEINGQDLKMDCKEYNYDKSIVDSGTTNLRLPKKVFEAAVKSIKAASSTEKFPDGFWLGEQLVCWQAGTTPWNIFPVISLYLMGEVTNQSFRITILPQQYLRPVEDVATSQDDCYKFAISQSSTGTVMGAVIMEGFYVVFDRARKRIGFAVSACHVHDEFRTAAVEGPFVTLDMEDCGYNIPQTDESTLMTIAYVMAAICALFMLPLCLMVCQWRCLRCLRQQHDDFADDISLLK
Sequence of UniProt Q9Y572 (whole entry, looked up): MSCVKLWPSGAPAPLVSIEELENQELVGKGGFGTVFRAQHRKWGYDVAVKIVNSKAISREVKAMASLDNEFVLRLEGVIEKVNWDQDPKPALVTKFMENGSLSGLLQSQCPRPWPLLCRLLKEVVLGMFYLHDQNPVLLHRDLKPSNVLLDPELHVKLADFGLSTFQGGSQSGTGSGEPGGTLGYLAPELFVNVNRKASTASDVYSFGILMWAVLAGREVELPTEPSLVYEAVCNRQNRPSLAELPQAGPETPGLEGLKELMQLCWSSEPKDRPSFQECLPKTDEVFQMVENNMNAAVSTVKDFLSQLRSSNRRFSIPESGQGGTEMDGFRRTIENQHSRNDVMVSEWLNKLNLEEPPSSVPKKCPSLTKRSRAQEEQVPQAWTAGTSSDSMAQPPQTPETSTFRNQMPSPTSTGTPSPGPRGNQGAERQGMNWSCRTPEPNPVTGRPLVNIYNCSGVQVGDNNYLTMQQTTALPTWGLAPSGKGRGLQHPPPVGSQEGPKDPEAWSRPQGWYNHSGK
Sequence of UniProt P70343 (whole entry, looked up): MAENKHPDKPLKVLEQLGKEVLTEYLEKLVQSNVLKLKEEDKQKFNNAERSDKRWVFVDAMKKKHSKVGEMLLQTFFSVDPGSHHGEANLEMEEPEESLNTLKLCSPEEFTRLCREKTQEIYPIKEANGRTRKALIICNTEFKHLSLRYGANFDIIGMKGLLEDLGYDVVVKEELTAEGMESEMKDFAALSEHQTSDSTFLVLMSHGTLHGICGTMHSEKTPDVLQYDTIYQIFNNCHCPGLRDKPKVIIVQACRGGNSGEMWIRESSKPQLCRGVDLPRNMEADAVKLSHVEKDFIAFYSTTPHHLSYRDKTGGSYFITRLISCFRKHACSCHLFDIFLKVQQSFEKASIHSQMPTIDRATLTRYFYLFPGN
Sequence of UniProt P08684 (whole entry, looked up): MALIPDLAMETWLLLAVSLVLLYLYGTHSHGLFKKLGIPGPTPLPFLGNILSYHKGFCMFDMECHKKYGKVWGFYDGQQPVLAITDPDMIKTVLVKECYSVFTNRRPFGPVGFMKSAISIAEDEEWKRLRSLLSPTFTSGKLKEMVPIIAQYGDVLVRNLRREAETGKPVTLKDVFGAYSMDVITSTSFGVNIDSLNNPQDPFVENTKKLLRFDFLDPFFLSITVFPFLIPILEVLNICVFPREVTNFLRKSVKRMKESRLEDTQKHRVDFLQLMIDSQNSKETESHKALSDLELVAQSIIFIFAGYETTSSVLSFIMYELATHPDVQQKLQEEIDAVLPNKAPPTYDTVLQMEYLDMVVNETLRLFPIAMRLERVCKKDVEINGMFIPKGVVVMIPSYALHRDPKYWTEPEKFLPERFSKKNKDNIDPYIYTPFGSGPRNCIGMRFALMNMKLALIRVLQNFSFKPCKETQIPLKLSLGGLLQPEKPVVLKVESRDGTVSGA
Sequence of UniProt P04228 (whole entry, looked up): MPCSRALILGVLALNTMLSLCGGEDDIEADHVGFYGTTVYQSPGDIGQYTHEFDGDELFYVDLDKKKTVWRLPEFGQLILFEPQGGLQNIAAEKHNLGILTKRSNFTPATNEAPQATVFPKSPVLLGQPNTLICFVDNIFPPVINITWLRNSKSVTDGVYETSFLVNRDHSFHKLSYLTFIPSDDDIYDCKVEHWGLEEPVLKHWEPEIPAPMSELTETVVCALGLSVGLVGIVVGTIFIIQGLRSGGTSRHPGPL

With `CC(=O)N[C@@H](CCCNC(=O)c1ccc(-c2cc(C(F)(F)F)ccn2)cc1)C(=O)N[C@@H](CCCNC(=O)c1ccc(-c2cc(C(F)(F)F)ccn2)cc1)C(N)=O` the IC50 was 31 µM (DUSP14 (Homo sapiens, UniProt O95147); enzyme activity, inhibitor).
`Cc1ccc(NC(=O)CCc2cccc(NC3=CC(=O)N(C4CCC(=O)NC4=O)C3=O)c2)cc1Cl` (centres unmarked) has an IC50 of 0.55 µM (Protein cereblon (CRBN, Homo sapiens, UniProt Q96SW2); ligand displacement, TR-FRET).
With `CN1CCN(Cc2ccc(NC(=O)c3ccc(C(C)(C)C)c(C#Cc4cnc5cccnn45)c3)cc2C(F)(F)F)CC1` the IC50 was over 10 µM (RIPK3 (Homo sapiens, UniProt Q9Y572); enzyme activity, inhibitor, ADP-Glo kinase; 20 ng enzyme).
`CNc1nc2sc3c(N4CCNCC4)nnnc3c2c2c1CCCC2` has an IC50 of 0.029 µM (Beta-glucuronidase (uidA, Escherichia coli, UniProt P05804); enzyme activity, inhibitor).
For `CC(=O)NCP(=O)(O)O`, the IC50 was 463 ± 34 µM (Urease subunit alpha (Sporosarcina pasteurii, UniProt P41020); enzyme activity, inhibitor, indophenol colorimetric; 20 min, pH 7.0, 37 °C, together with: 50 mM urea).
For `CC[C@H](C)[C@H](NC(=O)[C@@H]1CCCN1C(=O)CNC(=O)[C@H](CC(N)=O)NC(=O)CNC(=O)[C@H](CC(=O)O)NC(=O)[C@@H]1CCC(=O)O[C@H](C)[C@H](NC(=O)[C@@H](NC(=O)[C@H](Cc2ccccc2)NC(=O)[C@@H](NC(=O)[C@H](CCCCN)NC(=O)CNC(=O)[C@H](CC(=O)O)NC(=O)CNC(=O)[C@@H](NC(=O)CNC(=O)[C@H](CC(=O)O)NC(=O)[C@@H]2CCC(=O)O[C@H](C)[C@H](NC(=O)[C@@H](NC(=O)[C@H](CC(C)C)NC(=O)[C@H](CCCCN)NC(=O)[C@H](Cc3ccccc3)NC(=O)[C@H](CC(=O)O)NC(=O)CNC(=O)[C@H](CCCCN)NC(=O)[C@H](CC(C)C)NC(=O)[C@H](CO)NC(=O)CN)C(C)C)C(=O)N[C@@H](CCSC)C(=O)N[C@@H](CCCCN)C(=O)N[C@@H](C(C)C)C(=O)N3CCC[C@H]3C(=O)N2)C(C)C)C(C)C)[C@@H](C)O)C(=O)N[C@@H](C)C(=O)N[C@@H](CC(C)C)C(=O)NCC(=O)N1)C(=O)N[C@@H](Cc1ccc(O)cc1)C(=O)N[C@@H]1C(=O)N[C@@H]2C(=O)N[C@@H](CCC(N)=O)C(=O)N[C@@H](C)C(=O)N[C@@H](C(C)C)C(=O)NCC(=O)N[C@@H](CCC(=O)O[C@@H]2C)C(=O)N[C@H](C(=O)NCC(=O)NCC(=O)N[C@@H](CC(=O)O)C(=O)N[C@@H](CC(C)C)C(=O)N2CCC[C@H]2C(=O)N2CCC[C@H]2C(=O)N[C@@H](CC(C)C)C(=O)N[C@@H](Cc2ccccc2)C(=O)O)CCC(=O)O[C@@H]1C`, the IC50 was 0.31 µM (Neutrophil elastase (ELANE, Homo sapiens, UniProt P08246); enzyme activity, inhibitor).
With `Nc1ncnc2c1ncn2[C@@H]1O[C@H](CSCCNC(=O)NCCc2ccccc2)[C@@H](O)[C@H]1O` the IC50 was over 50 µM (EHMT2 (Homo sapiens, UniProt Q96KQ7); enzyme activity, inhibitor, radiometric).
For `Cc1ccc(/C=C/C(=O)c2ccc(N3CCNCC3)cc2)cc1`, the IC50 was 15.5 µM (Beta-secretase 1 (BACE1, Homo sapiens, UniProt P56817); enzyme activity, inhibitor, fluorescence; with preincubation).
The IC50 of `C/C(=C\C(=O)N[C@@H](CC(C)C)C(=O)N1CC(F)(F)C[C@H]1C(=O)N[C@H](C)CCC(N)=O)c1ccc(OP(=O)(O)O)cc1` is reported as 0.121 ± 0.016 µM (STAT3 (Homo sapiens, UniProt P40763); phosphopeptide binding, inhibitor, fluorescence polarization).
The IC50 of `O=C(NC12CC3CC(CC(C3)C1)C2)c1cc2cc(Cl)ccc2[nH]1` is reported as 20 µM (Cytochrome P450 3A4 (CYP3A4, Homo sapiens, UniProt P08684); enzyme activity, inhibitor; together with: VG substrate).
`O=C(NCCN1CCC2(CC1)C(=O)NCN2C(=O)C1CC1)c1ccc2ccccc2c1` has an IC50 of 0.44 µM (Phospholipase D2 (Homo sapiens, UniProt O14939); enzyme activity, inhibitor).
For `CC1C(=NNC(=O)c2ccncc2)C(C)C(c2ccc(Cl)cc2)OC1c1ccc(Cl)cc1` (centres unmarked), the IC50 was 4.76 µM (gyrB (Escherichia coli, UniProt P0AES6); ATPase activity, inhibitor).
With `CC(C)C[C@H](NC(=O)[C@H](CO)NC(=O)[C@H](Cc1ccc(O)cc1)NC(=O)CNC(=O)[C@H](CCCNC(=N)N)NC(=O)[C@H](Cc1ccc(O)cc1)NC(=O)[C@H](CC(N)=O)NC(=O)[C@H](CC(=O)O)NC(=O)[C@@H](N)CC(C)C)C(=O)NCC(=O)N[C@@H](CC(N)=O)C(N)=O` the IC50 was over 50 µM (MHC class II I-A g7 (Mus musculus, UniProt P04228+Q31135); peptide binding, competitor, competition ELISA; at least 24 h, pH 7.0, room temperature, together with: biotinylated HEL 10-23 200 nM).
`CC(=O)N[C@@H](Cc1ccccc1)C(=O)N[C@@H](CC(C)C)C(=O)N[C@H](C(=O)N[C@@H](CC(=O)O)C(=O)CCl)[C@@H](C)O` gave an IC50 of 25.6 µM (Caspase-4 (Casp4, Mus musculus, UniProt P70343); enzyme activity, inhibitor, fluorescence).

Some of these lines once more:
For `CC1C(=NNC(=O)c2ccncc2)C(C)C(c2ccc(Cl)cc2)OC1c1ccc(Cl)cc1` (centres unmarked), the IC50 was 4.76 µM (gyrB (Escherichia coli, UniProt P0AES6); ATPase activity, inhibitor).
With `Nc1ncnc2c1ncn2[C@@H]1O[C@H](CSCCNC(=O)NCCc2ccccc2)[C@@H](O)[C@H]1O` the IC50 was over 50 µM (EHMT2 (Homo sapiens, UniProt Q96KQ7); enzyme activity, inhibitor, radiometric).
